# Measurements gathered from unrelated publications.
# Each numbered part is a random draw from the data of one study; scales do not carry over between parts. Positions count from the first letter of the parent shown.

# Sample 1
# Target: Ras GTPase-activating protein-binding protein 1, full length (G3BP1, Homo sapiens, UniProt Q13283)
# Sequence of UniProt Q13283 (whole entry, looked up): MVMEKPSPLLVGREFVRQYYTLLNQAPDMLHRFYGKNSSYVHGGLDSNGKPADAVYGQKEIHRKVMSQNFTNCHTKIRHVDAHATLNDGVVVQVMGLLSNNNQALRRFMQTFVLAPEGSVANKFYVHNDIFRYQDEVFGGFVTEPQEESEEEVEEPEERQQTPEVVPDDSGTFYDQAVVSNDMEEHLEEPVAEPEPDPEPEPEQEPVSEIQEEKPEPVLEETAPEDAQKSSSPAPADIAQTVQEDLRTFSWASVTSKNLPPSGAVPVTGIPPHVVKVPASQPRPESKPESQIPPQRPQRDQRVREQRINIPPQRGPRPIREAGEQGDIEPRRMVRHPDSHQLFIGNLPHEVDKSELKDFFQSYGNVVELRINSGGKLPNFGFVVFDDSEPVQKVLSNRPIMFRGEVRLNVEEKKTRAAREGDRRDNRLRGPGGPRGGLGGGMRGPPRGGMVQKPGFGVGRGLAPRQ
# Method: RNA Bind-n-Seq
# Molecule type: RNA
# Sample: in vitro
# Tested at: 200 nM
# Setting: whole 134-nt RNA, ends assumed
# Together with: 150 mM KCl
# Reference: input library
# Direction: higher = stronger binding
Oligonucleotide,log2 enrichment
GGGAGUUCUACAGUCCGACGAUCUAACUUUAGAGGUGGAUCUGAUGGAUAUGGCAGUGGACGUGGAUUUGGGGAUGGCUAUAAUGGGUAUGGAGGAGGACCUGGAGGUGGCAAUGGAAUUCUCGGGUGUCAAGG,0.427
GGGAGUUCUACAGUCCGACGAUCUCAAGUCCUGUGCUACACAUCGUAUGUACCGAAUCGGGUUUGGGAGGGAAAGGGAAAGUAUUAUGUUACGCCGUUCGGAUCUGCACUUCCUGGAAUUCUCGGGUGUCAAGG,0.966
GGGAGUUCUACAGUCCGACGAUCGCAGGAAGUAAAAACAAAUGGAAAUGCUUCGGAUAGUGGCAGGGGUGGGGGUUGCUAAGGAUAGGGUGGGAUGGGAGUGGGUAAAGAGUUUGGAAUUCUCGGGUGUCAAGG,0.746
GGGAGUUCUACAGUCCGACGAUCUCCUGUGCUACACAUCGUAUGUACCGAAUCGGCCCCCCGGGCCCCCCGGGGCCCCCCGGGAAAGUAUUAUGUUACGCCGUUCGGAUCUGCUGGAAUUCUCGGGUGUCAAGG,-0.654
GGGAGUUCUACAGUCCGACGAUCUGGCCCUGGUGGCAUGCGGGGAGGAAGAGGUGGCCUCAUGGAUCGUGGUCGUCCCGGUGGAAUGUUCAGAGGUGGCCGUGGUGGAGACAGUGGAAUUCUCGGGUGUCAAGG,0.155
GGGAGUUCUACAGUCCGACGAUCGUCCUGUGCUACACAUCGUAUGUACCGAAUCGGAAAAAAGGGGAAAAAAGGAAAAAAGGAAAGUAUUAUGUUACGCCGUUCGGAUCUGCAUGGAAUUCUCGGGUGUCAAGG,-0.761
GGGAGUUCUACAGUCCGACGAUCUCCUGUGCUACACAUCGUAUGUACCGAAUCGGGAAAAAGGGAAAAAAAGGGUUUUUGGGAAAGUAUUAUGUUACGCCGUUCGGAUCUGCAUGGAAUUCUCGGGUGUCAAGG,-0.333
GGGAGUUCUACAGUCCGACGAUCUCAAGUCCUGUGCUACACAUCGUAUGUACCGAAUCGGAAAAAAAGGAGGUUUGGAAAGUAUUAUGUUACGCCGUUCGGAUCUGCACUUCCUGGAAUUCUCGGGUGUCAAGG,-1.33
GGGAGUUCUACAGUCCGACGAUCACCAUGCAGGUGGGCAUCUUUGGGAAGUGGGGCAAGGGGGGGAUAGGGAGGGGGGUAACACUUUGGGAACCGGUGGUCCCAGGUCGUUUCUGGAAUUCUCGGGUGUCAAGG,0.806
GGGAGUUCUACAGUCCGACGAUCAAGUCCUGUGCUACACAUCGUAUGUACCGAAUCGGGUUUUGGGUUUUGGUUUUGGGAAAGUAUUAUGUUACGCCGUUCGGAUCUGCACUUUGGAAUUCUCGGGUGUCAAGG,-0.907

# Sample 2
# Target: RNA binding protein fox-1 homolog 2, RRM domain, GST-SBP tag (RBFOX2, Homo sapiens, UniProt O43251-10, residues 100-194)
# Method: RNA Bind-n-Seq
# Molecule type: RNA
# Sample: in vitro
# Tested at: 365 nM
# Setting: natural RNA segment, single round, ends assumed
# Reference: no-protein control
# Direction: higher = stronger binding
# Residues (chain): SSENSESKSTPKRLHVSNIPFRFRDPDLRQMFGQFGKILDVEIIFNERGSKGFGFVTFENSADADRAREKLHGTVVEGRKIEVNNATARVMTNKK
Oligonucleotide,RBNS enrichment (R)
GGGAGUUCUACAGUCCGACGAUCUGGCACACCACUCCUUUCUGAUGCUUGUCCUCCUGCUUUCUGAGACUCUGCUGCCUCCAUGUCCUCUCUGGGACCUGACUCUCCACAGGGAGGGAGACUCCUUGUCCCAGUGGAAUUCUCGGGUGCCAA,0.674
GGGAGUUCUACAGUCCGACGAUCUUUGUGUGACUAAAAUGAAACAAGACAGUUGAAUUGUGUGACUUGAAGAUUACCAAUGAUUUUGAGGCUUUUCUAUAAUAAAAAGAGGUUCUAACCAUUAUUUGGGAACAUGGAAUUCUCGGGUGCCAA,0.575
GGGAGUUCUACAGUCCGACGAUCCCCGGCGCACGUGUGGGCACCACAGAGGACACGUGAGGGGAAUGGUCACCAGUGAGCCAUAUUUAUUAUUUCUAGAGAAAUCACGAACUGCUUUCUGUAAUUGCACUGUGUGGAAUUCUCGGGUGCCAA,0.686
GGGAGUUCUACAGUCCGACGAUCGGCAGGGGAGUGCUCCACAAGGUGGUUUGCUGGCUUCAGAGCCCUAGAAGCACAAGACAGUGGAGCCAGCGGAGCCGGGACUAGAGGAGUUGGGCAGUCUCAGUUGAGAAUGGAAUUCUCGGGUGCCAA,0.624
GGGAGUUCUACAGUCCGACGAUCUCAUCCCAAAUGACAAGGAAUGUGGCUCAGAGAAGGGUUUUUCUUUUUUGACCUUUCUUCUCUCAACAGGAACCUGCCUGAGGACACCCUUCUAGAGCAAGGAAUUGACUUGGAAUUCUCGGGUGCCAA,0.341
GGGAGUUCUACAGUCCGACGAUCCACUGCCACGUGGACCCCUAUGCGUGCGCAGAGGGCAGCGGGUAUGUGGCUUUGCAGGCCCGGCCCAUGCCUCUGCAGCCACACAGCACAACGUCUCUACUGUGCCUAUUUGGAAUUCUCGGGUGCCAA,0.292
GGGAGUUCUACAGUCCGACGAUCCCCAUGUUUAAGAUUUUUCAUCACUAACAUAUCCAUUAAAAGUAUCAACUGGCCAGGCAGGGUGGCUCACGCCUGUACUCCCAGCAUUUUGUGAGGCCAAGGUGGGUGGAUGGAAUUCUCGGGUGCCAA,3.04
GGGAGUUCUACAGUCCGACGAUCGCUUUUAGUCUGGCCAGGGAUCUGACUCCUGAGUUGGUUGCCUCUCCCCUGCUCACUCCAGUCACAUAGAGAAUUGGUGUUUCCCGCAGUGGGGAUGCAGCUGUUGGACAUGGAAUUCUCGGGUGCCAA,0.672
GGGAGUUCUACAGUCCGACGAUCCCGCAGCCCUGCCCUGUCCUGUCCUGUCCUGACUUCAUCUCUCCUUCUGCCCAAGUCUGUGUCCCAUCAGACUUGCAGCCUUUCAGCUUAACAGUUGCCCGGUCCUGCUGUGGAAUUCUCGGGUGCCAA,0.747
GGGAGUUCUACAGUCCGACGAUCUGAUGGUGUACUCUGCCCUGCGCAUCCCACCCGAGGAUGAGGGAACAUGGGGGGGCCCCUGGGCCUGGGGUGCCCUCCCGAUCUCCUCGUCCCGUAUUUCUCCAUCUCCAUGGAAUUCUCGGGUGCCAA,0.352
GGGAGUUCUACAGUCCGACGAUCGAGAAGAGGCGCUUCAAGCUCUUCUAAGCCUUGAUGGUGUCUCCCUUUAGGCAAAGAUCUGAAAUAUGACUACAGUUGUGCUGUUGAUGGGUUCUGCUUUAGAAAUUGUAUGGAAUUCUCGGGUGCCAA,0.538
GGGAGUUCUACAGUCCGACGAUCUGUGUGAACCCCACUCCUAUCCUUUGGCCUUAGUUUUCCCAUCUGUAAAACUCAGAAACGCAGUUGGAAAGUCCUUAUUCAUUUAGUAAGCGAAUAUAUUAUAAUAUGUAUGGAAUUCUCGGGUGCCAA,0.499

# Sample 3
# Target: ABI1, truncated, D143A, DHFR fusion (Arabidopsis thaliana)
# Method: DHFR PCA, deep sequencing
# Sample: yeast
# Setting: methotrexate growth selection, single substitutions
# Together with: (+)-ABA 2500 µM
# Reference: wild-type fitted maximum
# Direction: higher = stronger binding
# Parent: PYL1, truncated, DHFR fusion (Arabidopsis thaliana); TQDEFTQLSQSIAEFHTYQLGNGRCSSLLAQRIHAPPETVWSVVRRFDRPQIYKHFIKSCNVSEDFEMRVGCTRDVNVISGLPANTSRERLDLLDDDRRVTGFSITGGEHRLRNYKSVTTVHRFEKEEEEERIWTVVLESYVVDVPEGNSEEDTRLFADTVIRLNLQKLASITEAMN; partner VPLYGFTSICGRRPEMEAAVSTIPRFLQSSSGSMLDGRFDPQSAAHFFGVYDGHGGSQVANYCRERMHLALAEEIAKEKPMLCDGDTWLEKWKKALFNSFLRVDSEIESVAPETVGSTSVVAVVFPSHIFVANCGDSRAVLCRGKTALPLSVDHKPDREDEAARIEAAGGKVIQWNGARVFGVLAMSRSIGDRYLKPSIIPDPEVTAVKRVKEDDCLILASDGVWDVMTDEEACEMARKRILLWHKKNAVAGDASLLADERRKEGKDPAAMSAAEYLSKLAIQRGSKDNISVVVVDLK
Substitution,relative binding score
R99I,63.4%
E147M,95.1%
D159N,93.9%
L28F,91.5%
T101A,96.7%
V145A,89.9%
V100N,71.3%
H34F,94.8%
S26Y,93.2%
H34E,99%
V136C,103%
L112Q,4.39%
R111M,89.3%
D159Y,60.4%
F66R,94.1%
E89S,27.2%
S59R,96%

# Sample 4
# Target: Interferon regulatory factor 5, full length, phosphomimetic (IRF5, Homo sapiens, UniProt Q13568-2, residues 1-514, S451D/S453D/S456D/S462D)
# Method: protein-binding microarray
# Molecule type: double-stranded DNA, one strand shown
# Sample: in vitro
# Tested at: 940 nM top
# Setting: 60-bp whole probe
# Together with: salmon DNA 0.4 mg/ml
# Reference: random background probes
# Direction: higher = stronger binding
# Shared flanks, not repeated: GCCTAGCAC … GTCTTGATTCGCTTGACGCTGCTG
Oligonucleotide,fitted relative affinity [z-score]
TTATGTCTCCTTTTCCTTTAGTGCTAG,1.43
GCCACCGGTCTCCATGGGTCGTGCTAG,-0.289
CATCTTCTGGATTTTTTAGCGTGCTAG,0.283
ATAAAAGAACTCCTGGGGGAGTGCTAG,0.501
GACGCTTTCGACTTTCGGGACGTGCTA,2.84
GACGAACTGAGTTTGGAGACGTGCTAG,-0.556
GACGAACTGCGTATCGAGACGTGCTAG,0.18
TTAGGACTGGACGTTCGGTTAGTGCTA,-0.397
TTAGGTATCGGCCTCGGTTAGTGCTAG,5.52
GACGGTCGCGGTTTCGGGACGTGCTAG,2.98
TCTGTTTCTGATATGGTATGGTGCTAG,1.23
GATGGTTTCCTTCTCCTGACGTGCTAG,2.1
TTGGGTATCGGTATCGGTTAGTGCTAG,9.33
TTAGGTTTCGGTTCCAGTTAGTGCTAG,15
TTGCTGAAATAATACTGTTAGTGCTAG,0.0786
GACGATTCCAGACTGGAGACGTGCTAG,-0.385
TCATTTATCAATCATTTTACTGTGCTA,1.09
TTAGGTATCAGACTGGGTTAGTGCTAG,0.805
GACGGTATCGGGTAGCGGGACGTGCTA,5.15
GACGATTGCGGGTTTCGAGACGTGCTA,2.22

# Repeated from above (sample 2):
Oligonucleotide,RBNS enrichment (R)
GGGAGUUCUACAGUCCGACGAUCUGUGUGAACCCCACUCCUAUCCUUUGGCCUUAGUUUUCCCAUCUGUAAAACUCAGAAACGCAGUUGGAAAGUCCUUAUUCAUUUAGUAAGCGAAUAUAUUAUAAUAUGUAUGGAAUUCUCGGGUGCCAA,0.499
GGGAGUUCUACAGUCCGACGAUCCCGCAGCCCUGCCCUGUCCUGUCCUGUCCUGACUUCAUCUCUCCUUCUGCCCAAGUCUGUGUCCCAUCAGACUUGCAGCCUUUCAGCUUAACAGUUGCCCGGUCCUGCUGUGGAAUUCUCGGGUGCCAA,0.747
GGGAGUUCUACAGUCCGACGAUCCCCAUGUUUAAGAUUUUUCAUCACUAACAUAUCCAUUAAAAGUAUCAACUGGCCAGGCAGGGUGGCUCACGCCUGUACUCCCAGCAUUUUGUGAGGCCAAGGUGGGUGGAUGGAAUUCUCGGGUGCCAA,3.04
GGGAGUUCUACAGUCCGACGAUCGCUUUUAGUCUGGCCAGGGAUCUGACUCCUGAGUUGGUUGCCUCUCCCCUGCUCACUCCAGUCACAUAGAGAAUUGGUGUUUCCCGCAGUGGGGAUGCAGCUGUUGGACAUGGAAUUCUCGGGUGCCAA,0.672
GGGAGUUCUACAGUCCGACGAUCGGCAGGGGAGUGCUCCACAAGGUGGUUUGCUGGCUUCAGAGCCCUAGAAGCACAAGACAGUGGAGCCAGCGGAGCCGGGACUAGAGGAGUUGGGCAGUCUCAGUUGAGAAUGGAAUUCUCGGGUGCCAA,0.624
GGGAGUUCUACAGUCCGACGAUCCCCGGCGCACGUGUGGGCACCACAGAGGACACGUGAGGGGAAUGGUCACCAGUGAGCCAUAUUUAUUAUUUCUAGAGAAAUCACGAACUGCUUUCUGUAAUUGCACUGUGUGGAAUUCUCGGGUGCCAA,0.686
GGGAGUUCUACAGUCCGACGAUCUGAUGGUGUACUCUGCCCUGCGCAUCCCACCCGAGGAUGAGGGAACAUGGGGGGGCCCCUGGGCCUGGGGUGCCCUCCCGAUCUCCUCGUCCCGUAUUUCUCCAUCUCCAUGGAAUUCUCGGGUGCCAA,0.352
